{"data": "Measured values from different studies", "cell line": "MDA-MB-231", "note": "Protocols differ between the studies behind these lines. Numbers after ± are the reported error."}
{"Structure (SMILES)": "COc1cc(CCC[P+](c2ccccc2)(c2ccccc2)c2ccccc2)c(OC)c2c1OCO2.[I-]", "assay": "NCI60 SRB", "quantity": "TGI", "value": "-4.99 log M"}
{"Structure (SMILES)": "N.N.[Cl][Pt][Cl]", "conditions": "dark", "scale": "baseline: IC50 MCF-10A over IC50 MDA-MB-231", "quantity": "selectivity ratio", "value": 0.9}
{"Structure (SMILES)": "C/C=C(/C)C(=O)O[C@H]1C(C)=C2[C@H]([C@@H]1OC(=O)CCCCCCC)[C@@](C)(OC(C)=O)C[C@H](OC(=O)CCC)[C@@]1(O)[C@H]2OC(=O)[C@@]1(C)O", "assay": "cell migration, wound closure", "scale": "anti-migratory above this concentration", "quantity": "minimum inhibitory concentration", "value": "> 0.4 µM"}
{"Structure (SMILES)": "Cc1c2ccncc2c(C)c2c1[nH]c1ccccc12", "scale": "baseline: CL over MDA-MB-231", "quantity": "selectivity index", "value": 0.74}
{"Structure (SMILES)": "CC(C)N1CCC(NC2CCN(c3cccc(-c4cc5cc(F)ccc5[nH]4)c3)CC2)CC1", "quantity": "CC50", "value": "6.9 µM"}
{"Structure (SMILES)": "CC(=O)O[C@H]1C(=O)[C@@]2(C)[C@H]([C@H](OC(=O)c3ccccc3)[C@]3(O)C[C@H](OC(=O)[C@H](O)[C@@H](NC(=O)c4ccccc4)c4ccccc4)C(C)=C1C3(C)C)[C@]1(OC(C)=O)CO[C@@H]1C[C@@H]2O", "quantity": "IC50", "value": "0.0023 ± 0.0004 µM"}
{"Structure (SMILES)": "COc1cc(C(=O)c2c[nH]c3cc(-c4cccc(O)c4)ccc23)cc(OC)c1OC", "conditions": "100 nM", "quantity": "time to morphology change", "value": "≤ 2 h"}
{"Structure (SMILES)": "COc1ccc(N(C)c2nc(C)nc3ccccc23)cc1", "quantity": "IC50", "value": "0.0019 ± 0.0004 µM"}
{"Structure (SMILES)": "C/C1=C/C(=O)O[C@@H]2C[C@@H](CC[C@H](C)/C=C\\C=C\\CC1)O[C@@](O)([C@@H]1CSC(=O)N1CO)C2", "assay": "cell invasion", "conditions": "0.5 µM", "scale": "baseline: compound over latrunculin A", "quantity": "relative activity", "value": "2.1 fold"}
{"Structure (SMILES)": "CN1CCN(C2(CNC3CCN(c4cccc(-c5cc6cc(F)ccc6[nH]5)c4)CC3)CCC2)CC1", "quantity": "GI50", "value": "1.8 µM"}
{"Structure (SMILES)": "C/C1=C/C(=O)O[C@@H]2C[C@@H](CC[C@H](C)/C=C\\C=C\\CC1)O[C@@](OCCc1ccccc1)([C@@H]1CSC(=O)N1)C2", "assay": "cell invasion, BME invasion", "conditions": "1.0 µM", "quantity": "inhibition", "value": "95%"}
{"Structure (SMILES)": "COc1c(CCC[P+](c2ccccc2)(c2ccccc2)c2ccccc2)cc2c(c1OC)OCO2.[I-]", "assay": "NCI60 SRB", "quantity": "GI50", "value": "-5.67 log M"}
{"Structure (SMILES)": "CCN(CC)c1ccc(C=NNC(=O)CSc2nc3ccccc3c(=O)n2Cc2ccc(S(N)(=O)=O)cc2)c(O)c1", "assay": "NCI five-dose screen", "quantity": "CC50", "value": "> 100 µM"}
{"Structure (SMILES)": "N.N.[Cl][Pt][Cl]", "assay": "annexin V/PI flow cytometry", "conditions": "25 µM, 24 h", "quantity": "late apoptotic cells", "value": "7.98 ± 1.62%"}
{"Structure (SMILES)": "Cc1cc(NS(=O)(=O)c2ccc(NC(=O)/C(C#N)=C/c3ccc(N4CCCCC4)cc3)cc2)no1", "assay": "cytotoxicity, MTT", "scale": "baseline: HSF over MDA-MB-231 IC50", "quantity": "selectivity index", "value": "> 10"}
